Published values from different studies.
Each numbered part is a random draw from the data of one study; scales do not carry over between parts. Positions count from the first letter of the parent shown.

Study 1 — method: RNA Bind-n-Seq; molecule type: RNA; matrix: in vitro; tested at: 200 nM; notes: whole 134-nt RNA, ends assumed; with: 150 mM KCl; relative to: input library; direction: higher = stronger binding
Target: Ras GTPase-activating protein-binding protein 1, full length (G3BP1, Homo sapiens, UniProt Q13283)
Chain of UniProt Q13283 (whole entry, looked up): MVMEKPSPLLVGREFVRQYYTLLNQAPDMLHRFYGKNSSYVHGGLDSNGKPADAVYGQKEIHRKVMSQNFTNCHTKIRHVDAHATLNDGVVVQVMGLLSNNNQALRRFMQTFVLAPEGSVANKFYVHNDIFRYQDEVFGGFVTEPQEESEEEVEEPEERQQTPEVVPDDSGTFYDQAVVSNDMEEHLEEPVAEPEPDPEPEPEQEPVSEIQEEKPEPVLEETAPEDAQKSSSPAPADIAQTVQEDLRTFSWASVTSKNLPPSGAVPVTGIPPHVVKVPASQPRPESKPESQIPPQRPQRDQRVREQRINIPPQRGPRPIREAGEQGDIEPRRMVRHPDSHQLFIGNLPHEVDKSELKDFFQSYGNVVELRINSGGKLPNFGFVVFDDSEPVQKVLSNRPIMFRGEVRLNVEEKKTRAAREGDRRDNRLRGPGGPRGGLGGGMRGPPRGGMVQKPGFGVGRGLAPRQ
Sequence	log2 enrichment
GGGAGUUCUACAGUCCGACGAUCUAACUUUAGGGGAGGAUCUGAUGGAUAUGGCAGUGGACGUGGAUUUGGGGAUGGCUAUAAUGGGUAUGGAGGAGGACCUGGAGGUGGCAAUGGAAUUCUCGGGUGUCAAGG	0.614
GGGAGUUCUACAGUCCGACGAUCACCAUGCAGGUGGGAAUCUUUGGGAAGUGGGGCAAGGGGGGGAUAGGGAGGGGGGUAACACUUUGGGAACAGGUGGUCCCAGGUCGUUUCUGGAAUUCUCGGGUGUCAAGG	1.07
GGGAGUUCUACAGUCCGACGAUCUUUUAUGUGGAGUUAUGAAGACCUACAGGCAGAGAGAGAAACAGGGGAGCAAGGUGCAAGAGUCCACAAAGGGACCUGAUGAAGCGAAGAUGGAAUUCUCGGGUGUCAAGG	0.052
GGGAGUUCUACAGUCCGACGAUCAGUCCUGUGCUACACAUCGUAUGUACCGAAUCGGGCCCCGGGGCCCCGGGCCCCGGGAAAGUAUUAUGUUACGCCGUUCGGAUCUGCACUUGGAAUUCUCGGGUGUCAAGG	-1.13
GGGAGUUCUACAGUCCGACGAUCUCCUGUGCUACACAUCGUAUGUACCGAAUCGGGAAAGGGUUUUUUUGGGAAAAAAAGGGAAAGUAUUAUGUUACGCCGUUCGGAUCUGCAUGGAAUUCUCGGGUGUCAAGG	-0.449
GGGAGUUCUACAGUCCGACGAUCUUCUCUCAUUUCUUCUGAAAUACAGGGCAAAUUGGAUCAAGGCAGUUCAGAUGUGUAGCAAACCCAGAGAAUUUGCAUUGGCUUUAGCCAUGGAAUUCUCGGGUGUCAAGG	1.22
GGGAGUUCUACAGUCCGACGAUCCUGUGCUACACAUCGUAUGUACCGAAUCGGUUUUUUUGGGUUUUUUUGGGGUUUUUUUGGGGAAAGUAUUAUGUUACGCCGUUCGGAUCUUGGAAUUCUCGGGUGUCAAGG	-0.88
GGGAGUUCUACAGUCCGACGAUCUAACUUAAGAGGAGGAUCUGAUGGAUAUGGCAGUGGACGUGGAUUUGGGGAUGGCUAUAAUGGGUAUGGAGGAGGACCUGGAGGUGGCAAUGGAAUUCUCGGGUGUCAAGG	0.26
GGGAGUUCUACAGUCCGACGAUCUGUAGAAAAGGCACUGGACUAACACUUGGCUGUAUCUUGUAACAGGCAUGUUAUGUUACCCAGAGAACUUUCCAAACAAGUACCUAAAACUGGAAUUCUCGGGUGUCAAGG	0.062
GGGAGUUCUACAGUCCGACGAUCACCAUGCAGGUGGGCAUCUUUGGGAAGUGGGGCAAGGGGGGGAUAGGGAGGGGGGUAACACUUUGGGAACAGGUGGUCCCAGUUCGUUUCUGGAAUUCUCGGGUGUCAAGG	1.01
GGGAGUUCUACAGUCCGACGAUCCUCAAGUCCUGUGCUACACAUCGUAUGUACCGAAUCGGUUUGGUUUUUGGAGGAAAGUAUUAUGUUACGCCGUUCGGAUCUGCACUUCCAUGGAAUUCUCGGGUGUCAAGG	-0.324

Study 2 — method: protein binding microarray; molecule type: double-stranded DNA, one strand shown; matrix: in vitro; tested at: not given; relative to: not given; direction: higher = stronger binding
Target: Histone acetyltransferase KAT6A, winged helix 2, GST fusion (KAT6A, Homo sapiens, UniProt Q92794, residues 85-181)
Notes: 8-mer, flanks averaged, mean of 2 arrays, mostly near background
Target sequence (chain): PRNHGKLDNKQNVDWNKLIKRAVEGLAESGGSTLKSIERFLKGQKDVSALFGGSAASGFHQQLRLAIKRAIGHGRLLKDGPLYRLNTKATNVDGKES
Sequence	E-score
ATGAGAAC	-0.148
CATGGCAC	0.00273
AACGATGC	-0.0173
AATCCGCT	0.0336
CTTAGATA	0.00745
CCGGAACG	-0.0788
AGCTTTAT	0.0146
CAGGTTAG	0.0238
AATATAAG	0.185
GACGTCAA	-0.06
ACTCGTTA	-0.168

Study 3 — method: DHFR PCA, deep sequencing; matrix: yeast; with: (+)-ABA 1.4 µM; relative to: wild-type fitted maximum; direction: higher = stronger binding
Target: ABI1, truncated, D143A, DHFR fusion (Arabidopsis thaliana)
Notes: methotrexate growth selection, single substitutions
Starting sequence: PYL1, truncated, DHFR fusion (Arabidopsis thaliana); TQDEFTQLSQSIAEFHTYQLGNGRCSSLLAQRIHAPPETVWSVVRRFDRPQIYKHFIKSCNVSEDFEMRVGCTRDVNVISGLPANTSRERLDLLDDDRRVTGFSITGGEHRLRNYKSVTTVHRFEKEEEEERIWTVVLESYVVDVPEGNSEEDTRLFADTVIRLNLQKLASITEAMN; partner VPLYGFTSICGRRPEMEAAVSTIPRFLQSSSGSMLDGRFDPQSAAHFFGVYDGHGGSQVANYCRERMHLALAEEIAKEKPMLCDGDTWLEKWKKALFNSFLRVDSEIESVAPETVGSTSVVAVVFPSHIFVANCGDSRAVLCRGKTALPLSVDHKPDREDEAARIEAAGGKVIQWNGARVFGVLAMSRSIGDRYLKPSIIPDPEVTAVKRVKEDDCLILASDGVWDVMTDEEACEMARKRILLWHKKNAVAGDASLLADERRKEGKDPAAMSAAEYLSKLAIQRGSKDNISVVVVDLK
Substitution	relative binding score
Q31M	15.1%
V137K	-5.57%
C25V	63.9%
W41Y	-20.9%
L29T	5.01%
M176H	32.2%

Other studies, line by line
Molecule	target	test	system	setting	scale	measurement	result
PhoQ, residues 284 288 289 292 302 303 SLCLSL	PhoP, residues 12 14 15 18 19 NFCKL (Escherichia coli, UniProt P23836)	Sort-seq, item: YFP reporter	E. coli	PhoQ-PhoP variant library, with: 10 µM Mg2+	relative to: high Mg2+ state, higher = stronger signaling	fold induction	32.4

Repeated from above (study 2):
Sequence	E-score
CCGGAACG	-0.0788
AGCTTTAT	0.0146
